Experimental data of several laboratories.
Each numbered part is a random draw from the data of one study; scales do not carry over between parts.

Set 1 — technique: protein-binding microarray; molecule type: double-stranded DNA, one strand shown; matrix: in vitro; tested at: 250 nM; notes: 60-bp whole probe; together with: salmon DNA 0.4 mg/ml; reference: random background probes; direction: higher = stronger binding
Target: Interferon regulatory factor 5, full length, phosphomimetic (IRF5, Homo sapiens, UniProt Q13568-2, residues 1-514, K96S/S451D/S453D/S456D/S462D)
| Strand | log fluorescence [z-score] |
| --- | --- |
| GCCTAGCACGACGCTCTCAGACTGGAGACGTGCTAGGTCTTGATTCGCTTGACGCTGCTG | -0.459 |
| GCCTAGCACGACGGTTTCGTTCTCGGGACGTGCTAGGTCTTGATTCGCTTGACGCTGCTG | 5.75 |
| GCCTAGCACGACGATATCTGGACTGGAGACGTGCTAGTCTTGATTCGCTTGACGCTGCTG | 0.431 |

Set 2 — technique: protein binding microarray; molecule type: double-stranded DNA, one strand shown; matrix: in vitro; tested at: not given; reference: not given; direction: higher = stronger binding
Target: Histone acetyltransferase KAT6A, winged helix 2, GST fusion (KAT6A, Homo sapiens, UniProt Q92794, residues 85-181)
Notes: 8-mer, flanks averaged, mean of 2 arrays, mostly near background
Construct (chain): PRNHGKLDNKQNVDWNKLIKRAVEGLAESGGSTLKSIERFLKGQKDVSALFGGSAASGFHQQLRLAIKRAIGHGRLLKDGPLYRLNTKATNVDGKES
| Strand | E-score |
| --- | --- |
| TCGATCCA | -0.155 |
| AAGACGCA | 0.0564 |
| CTGTTTTC | 0.125 |

Mixed results
F2 mature alpha-thrombin: Prothrombin, mature alpha-thrombin (F2, Homo sapiens, UniProt P00734)
| Substance | target | test | system | setting | scale | endpoint | value |
| --- | --- | --- | --- | --- | --- | --- | --- |
| GGTTGGTGTGGTTGG (2'F-ANA at 3 4 5 7 8 12 13 14) | F2 mature alpha-thrombin | aptamer microarray, sandwich | DNA with 2'F-ANA, in vitro | 200 nM, whole 15-mer aptamer, many near background, together with: Cy3 exosite-II aptamer, 400 nM | higher = stronger binding | mean fluorescence intensity | 107 a.u. |
| PhoQ, residues 284 288 289 292 302 303 NSMLDC | PhoP, residues 12 14 15 18 19 QYCSL (Escherichia coli, UniProt P23836) | Sort-seq, item: YFP reporter | E. coli | PhoQ-PhoP variant library, together with: 10 µM Mg2+ | reference: high Mg2+ state, higher = stronger signaling | fold induction | 8.56 |
| GGTTGGTGTGGTTGG (2'F-ANA at 2 4 5 9 12 13 14 15) | F2 mature alpha-thrombin | aptamer microarray, sandwich | DNA with 2'F-ANA, in vitro | 200 nM, whole 15-mer aptamer, many near background, together with: Cy3 exosite-II aptamer, 400 nM | higher = stronger binding | mean fluorescence intensity | 47.3 a.u. |

Excerpt of the above (set 2):
| Strand | E-score |
| --- | --- |
| CTGTTTTC | 0.125 |
